{"data": "Measured values collected from several papers", "note": "“And” joins repeats or separate records; there may be more than shown. ± marks the error that the study gave.", "UniProt Q9Y5L0, sequence (whole entry, looked up)": "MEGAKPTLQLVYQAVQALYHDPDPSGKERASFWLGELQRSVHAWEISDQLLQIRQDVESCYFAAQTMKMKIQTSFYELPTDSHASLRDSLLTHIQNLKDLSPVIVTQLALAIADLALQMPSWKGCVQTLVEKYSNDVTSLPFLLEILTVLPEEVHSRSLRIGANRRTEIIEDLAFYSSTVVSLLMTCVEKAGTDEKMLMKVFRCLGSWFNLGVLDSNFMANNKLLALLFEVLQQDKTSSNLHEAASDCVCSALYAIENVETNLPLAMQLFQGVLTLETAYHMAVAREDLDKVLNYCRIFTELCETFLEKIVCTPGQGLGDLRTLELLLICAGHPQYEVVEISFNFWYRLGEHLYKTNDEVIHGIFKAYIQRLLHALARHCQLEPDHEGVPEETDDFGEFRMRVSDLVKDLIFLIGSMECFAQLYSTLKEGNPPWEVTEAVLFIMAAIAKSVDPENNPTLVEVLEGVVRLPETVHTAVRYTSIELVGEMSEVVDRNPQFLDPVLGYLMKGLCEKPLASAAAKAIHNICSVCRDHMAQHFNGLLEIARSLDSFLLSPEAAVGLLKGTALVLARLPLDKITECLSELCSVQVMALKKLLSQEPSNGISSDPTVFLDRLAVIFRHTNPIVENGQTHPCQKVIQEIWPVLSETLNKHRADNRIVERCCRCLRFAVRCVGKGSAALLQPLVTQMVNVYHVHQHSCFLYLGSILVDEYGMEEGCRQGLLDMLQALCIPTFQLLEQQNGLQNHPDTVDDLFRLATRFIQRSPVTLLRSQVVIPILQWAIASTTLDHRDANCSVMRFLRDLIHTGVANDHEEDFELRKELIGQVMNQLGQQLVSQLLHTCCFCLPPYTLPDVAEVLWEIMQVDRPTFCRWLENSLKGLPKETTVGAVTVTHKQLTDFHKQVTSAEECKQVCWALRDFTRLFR"}
{"Compound": "O=C(O)/C=C/C(=O)O.Oc1cccc2[nH]cc(CCNC3CCCCC3)c12", "test system": "C57BL/6J mice", "setting": "subcutaneous, 1 mg/kg", "scale": "reference: pre-session baseline", "measurement": "body temperature change", "value": "0.2 ± 0.1 °C"}
{"Compound": "C=CCN1CC[C@]23c4c5ccc(O)c4O[C@H]2C(=O)CC[C@@]3(O)[C@H]1C5", "test": "formalin test", "test system": "male ICR-CD1 mice", "setting": "sc, 5 mg/kg, 25 to 30 min", "measurement": "paw licking time", "value": "38 s and 59 s and 48 s and 67 s"}
{"Compound": "C#CCN(C)[C@H](C)Cc1ccccc1", "test": "footprint test", "test system": "MPTP-induced Parkinson's disease mouse model", "setting": "10 mg/kg", "measurement": "stride length", "value": "6.15 cm and 6.36 cm and 6.45 cm and 5.73 cm and 5.95 cm and 4.74 cm and 4.83 cm and 7.31 cm"}
{"Compound": "COc1ccc2[nH]cc(CCN(C)C)c2c1", "test": "DOM stimulus generalization", "test system": "rat trained on DOM", "setting": "intraperitoneal, training dose 1.0 mg/kg DOM", "measurement": "ED50", "value": "2.79 µmol/kg"}
{"Compound": "CC(C)=CCN1CC[C@]2(C)c3cc(O)ccc3C[C@H]1[C@H]2C", "test": "self-administration", "test system": "male Sprague-Dawley rat", "setting": "intravenous", "measurement": "dose with highest response rate", "value": "0.32 mg/kg/injection"}
{"Compound": "COc1cc(CCC[P+](c2ccccc2)(c2ccccc2)c2ccccc2)c(OC)c2c1OCO2.[I-]", "target or system": "Malme-3M", "test": "SRB", "measurement": "TGI", "value": "-5.16 log M"}
{"Compound": "CC(C)NCCc1c[nH]c2cccc(O)c12.O=C(O)/C=C/C(=O)O", "test system": "C57BL/6J mice", "setting": "subcutaneous, 30 mg/kg", "scale": "reference: pre-session baseline", "measurement": "body temperature change", "value": "-1.7 ± 0.2 °C"}
{"Compound": "C[C@]12CC[C@H]3[C@@H](CC=C4CC(O)CC[C@@]43CO)[C@@H]1CCC2O (stereo partly shown)", "test system": "GAN diet MASH rats", "setting": "ip, 20 mg/kg, two weeks", "scale": "reference: GAN vehicle", "measurement": "plasma insulin level", "value": "decreased"}
{"Compound": "COc1cc(Nc2ncc(F)c(Nc3ccc4c(n3)NC(=O)C(C)(C)O4)n2)cc(OC)c1OC", "target or system": "phorbol ester receptor", "measurement": "IC50", "value": "> 10 µM"}
{"Compound": "CC[C@H](C)[C@H](NC(=O)[C@H](Cc1ccccc1)NC(=O)[C@H](CCC(=O)O)NC(=O)[C@H](CCCNC(=N)N)NC(=O)[C@H](C)NC(=O)[C@H](C)NC(=O)[C@H](CCC(N)=O)NC(=O)[C@H](CCC(=O)O)NC(=O)[C@H](CCC(=O)O)NC(=O)[C@H](CC(C)C)NC(=O)[C@H](Cc1ccc(O)cc1)NC(=O)[C@H](CO)NC(=O)[C@H](CO)NC(=O)[C@@H](NC(=O)[C@H](CC(=O)O)NC(=O)[C@H](CO)NC(=O)[C@@H](NC(=O)[C@H](Cc1ccccc1)NC(=O)[C@@H](NC(=O)CNC(=O)[C@H](CCC(=O)O)NC(=O)[C@H](C)NC(=O)CCc1c[nH]cn1)[C@@H](C)O)[C@@H](C)O)C(C)C)C(=O)N[C@@H](C)C(=O)N[C@@H](Cc1c[nH]c2ccccc12)C(=O)N[C@@H](CC(C)C)C(=O)N[C@H](C(=O)N[C@@H](CCCNC(=N)N)C(=O)NCC(=O)N[C@@H](CCCNC(=N)N)C(=O)N[C@@H](CCCCNC(=O)COCCOCCNC(=O)COCCOCCNC(=O)CC[C@H](NC(=O)CCCCCCCCCCCCCCCCC(=O)O)C(=O)O)C(=O)NCC(=O)NCC(=O)N[C@@H](CO)C(=O)N[C@@H](CCCCNc1c(NCCCCCN(O)C(=O)CCC(=O)NCCCCCN(O)C(=O)CCC(=O)NCCCCCN(O)C(C)=O)c(=O)c1=O)C(=O)O)C(C)C [zirconium-89 labelled]", "test": "ex vivo gamma counting", "test system": "rat, intestine content", "setting": "subcutaneous, 3 nmol/kg, 4 h, added: [89Zr]-labelled peptide", "measurement": "tissue uptake", "value": "0.09 %ID/g"}
{"Compound": "C=CCNCCc1c[nH]c2cccc(O)c12.C=CCNCCc1c[nH]c2cccc(O)c12.O=C(O)/C=C/C(=O)O", "test system": "C57BL/6J mice", "setting": "subcutaneous, 0.1 mg/kg", "scale": "reference: pre-session baseline", "measurement": "body temperature change", "value": "-0.1 ± 0.1 °C"}
{"Compound": "CN1CC[C@]23c4c5ccc(O)c4O[C@H]2[C@@H](OS(=O)(=O)O)C=C[C@H]3[C@H]1C5", "test": "antinociception, tail-flick hot water latency", "test system": "Sprague-Dawley rat", "setting": "intraperitoneal, normal rats", "measurement": "ED50", "value": "0.82 mg/kg"}
{"Compound": "CCNCCc1c[nH]c2cccc(O)c12.CCNCCc1c[nH]c2cccc(O)c12.O=C(O)CCC(=O)O", "test system": "C57BL/6J mice", "setting": "subcutaneous, 30 mg/kg", "scale": "reference: pre-session", "measurement": "body temperature change", "value": "-5.4 ± 0.5 °C"}
{"Compound": "CC[C@H](C)[C@@H]1NC(=O)[C@@H]2CCCN2C(=O)[C@H](CC(C)C)NC(=O)[C@H](CC(C)C)NC(=O)CNC(=O)[C@@H](NC(=O)[C@@H](NC(=O)[C@H](CC(=O)O)NC(=O)CNC(=O)[C@@H](NC(=O)[C@H](C)NC(=O)CNC(=O)[C@H](CCCCN)NC(=O)[C@H](CC(C)C)NC(=O)[C@H](CC(C)C)NC(=O)[C@H](CCCCN)NC(=O)CNC(=O)[C@@H](NC(=O)[C@@H](N)CC(C)C)C(C)C)C(C)C)C(C)C)CSSC[C@@H](C(=O)O)NC1=O", "test": "RNA-seq, item: Ly6d", "test system": "mouse, traumatic brain injury model, frontal cortex and hippocampus", "setting": "dose not given", "scale": "reference: TBI alone", "measurement": "log2 fold change", "value": -2.85}
{"Compound": "CCCNCCc1c[nH]c2cccc(O)c12.CCCNCCc1c[nH]c2cccc(O)c12.O=C(O)/C=C/C(=O)O", "test system": "C57BL/6J mice", "setting": "subcutaneous, 0.03 mg/kg", "scale": "reference: pre-session baseline", "measurement": "body temperature change", "value": "-0.4 ± 0.2 °C"}
{"Compound": "Cc1ncc2n1-c1ccc(Cl)cc1C(c1ccccc1F)=NC2", "test": "self-administration, progressive-ratio schedule", "test system": "rhesus monkey", "setting": "intravenous", "measurement": "Emax", "value": "103%"}
{"Compound": "Cc1ccc(C(=O)N[C@H]2CC[C@@]3(O)[C@H]4Cc5ccc(O)c6c5[C@@]3(CCN4CC3CC3)[C@H]2O6)s1.Cl", "test": "antagonist, warm-water tail immersion", "test system": "Swiss Webster mouse", "setting": "subcutaneous, added: morphine 10 mg/kg s.c.", "measurement": "AD50", "value": "1.64 mg/kg"}
{"Compound": "COc1c(CCC[P+](c2ccccc2)(c2ccccc2)c2ccccc2)cc2c(c1OC)OCO2.[I-]", "target or system": "OVCAR-4", "test": "SRB", "measurement": "TGI", "value": "-4.9 log M"}
{"Compound": "CN1CC[C@]23c4c5ccc(O)c4O[C@H]2[C@@H](O)C=C[C@H]3[C@H]1C5", "test": "antinociception, tail-flick hot water latency", "test system": "Sprague-Dawley rat", "setting": "intraperitoneal, normal rats", "measurement": "ED50", "value": "3.41 mg/kg"}
{"Compound": "C[C@H]1CN(c2n[nH]c3nc(N[C@H]4CC[C@H](NS(=O)(=O)CCC(F)(F)F)CC4)ncc23)CCO1", "target or system": "Transportin-3 (Homo sapiens, UniProt Q9Y5L0)", "test": "Kinobeads competition, item: TNPO3", "setting": "0.8 µM, unit not given", "scale": "reference: vehicle", "measurement": "remaining binding", "value": 1.13}
{"Compound": "CC(C)C[C@H](CN)CC(=O)O", "test": "whole-cell current clamp", "test system": "DRG neurons, rat, spinal cord injury", "setting": "10 µM, overnight, added: nimodipine 5 µM", "measurement": "action potential threshold", "value": "-37.3 mV and -39.2 mV and -36.5 mV and -33.4 mV and -36 mV and -33.6 mV"}
{"Compound": "COc1cc2c(Oc3ccc4[nH]c(C)cc4c3F)ccnc2cc1OCC1(N)CC1", "test system": "paediatric recurrent refractory sarcoma", "setting": "10 mg", "measurement": "grade 3 sinus tachycardia", "value": "0%"}
{"note": "A few entries again:"}
{"Compound": "C=CCN1CC[C@]23c4c5ccc(O)c4O[C@H]2C(=O)CC[C@@]3(O)[C@H]1C5", "test": "formalin test", "test system": "male ICR-CD1 mice", "setting": "sc, 5 mg/kg, 25 to 30 min", "measurement": "paw licking time", "value": "38 s and 59 s and 48 s and 67 s"}
